Assay results collected from several papers.
± marks the error that the study gave. *: point of attachment.
B1: FITC-labelled, Ahx spacer, C-amide; FITC = O=C1OC2(c3ccc(O)cc3Oc3cc(O)ccc32)c2ccc(NC(=S)*)cc21; Ahx = NCCCCCC(=O)O; chain {FITC-Ahx}-KKGFYKKKQCRPSKGRKRGFCW-NH2 (cysteine pairing not given here)

`CCCCCCCCCCCCCCCCCCOc1ccccc1CC(=O)OCC[N+](C)(C)C` gave a GI50 of < 3 µM (leukaemia cells; range over four lines).
`N=C(N)SCCc1ccc(OCc2ccc([N+](=O)[O-])cc2)cc1` has a selectivity ratio of ~16 fold (tsA201; forward-mode exchanger current, inhibitor, inside-out patch clamp; relative to: IC50 NCX1.1 over IC50 NCX1.3).
With `NC1=NC(=S)NC12CCCCC2` the inhibition was 94.6% (human erythrocytes; hypotonicity-induced hemolysis; 600 µg/mL, 1 h).
The effective concentration of `O=C(/C=C/N1[C@H]2CC[C@@H]1c1ncnc(NC3CC3)c1C2)c1ccccc1O` is reported as 5 µM (C3H10T1/2; adipocyte differentiation, Oil Red O staining).
The GI50 of `COc1ccc2c(Oc3ccc4c(C(=O)Nc5ccccc5N)cccc4c3)ccnc2c1` is reported as 0.0355 µM (BEND3; cell growth or viability, MTS; 72 h).
For `Cc1cn(CC(=O)N(CCNC(=O)COCCOCCNC(=O)COCCOCCNC(=O)CN2CCN(CC(=O)O)CCN(CC(=O)O)CCN(CC(=O)O)CC2)CC(=O)NCCN(CC(=O)NCCN(CC(=O)NCCN(CC(=O)NCCN(CC(=O)NCCN(CC(=O)NCCN(CC(=O)NCCN(CC(=O)NCCN(CC(=O)NCCN(CC(N)=O)C(=O)Cn2cnc3c(N)ncnc32)C(=O)Cn2cnc3c(N)ncnc32)C(=O)Cn2cnc3c(=O)[nH]c(N)nc32)C(=O)Cn2cnc3c(N)ncnc32)C(=O)Cn2ccc(N)nc2=O)C(=O)Cn2cnc3c(=O)[nH]c(N)nc32)C(=O)Cn2cc(C)c(=O)[nH]c2=O)C(=O)Cn2cnc3c(=O)[nH]c(N)nc32)C(=O)Cn2cnc3c(N)ncnc32)c(=O)[nH]c1=O` [lutetium-177 labelled], “peak cellular uptake” read 8.59 ± 0.62% (K1; gamma counting; 6 h; relative to: added probe).
`COC(=O)[C@H]1[C@H]2C[C@@H]3c4[nH]c5cc(OC)ccc5c4CCN3C[C@H]2C[C@@H](OC(=O)c2cc(OC)c(OC)c(OC)c2)[C@@H]1OC` gave a [18F]-dopamine retention of 21.4% (mouse pheochromocytoma MPC cells; 10 µM, 30 min preincubation, added: 0.024 MBq/mL [18F]-dopamine, 120 min retention phase; relative to: control).
Under “growth arrest dose”, `CC(C)[C@H](CO)Nc1nc(Nc2cccc(Cl)c2)c2ncn(C(C)C)c2n1` is recorded as > 10 µM (HFF).
`O=C1/C(=C/c2ccc(O)c(O)c2)Oc2cc(O)ccc21`: “fold decrease in ROS” 1.67 (MRC-5; H2O2-induced intracellular ROS; concentration not given, 24 h pretreatment, added: H2O2 5 mM for 15 min; relative to: untreated H2O2-exposed cells).
With `Cc1cc(-c2ccccc2)c2c(n1)C1(CCCCC1)NC2=O` the inhibition was 74.6% (human erythrocytes; hypotonicity-induced hemolysis; 200 µg/mL, 1 h).
For `C[C@@H]1C[C@H]2[C@@H]3CCC4=CC(=O)C=C[C@]4(C)[C@@]3(F)[C@@H](O)C[C@]2(C)[C@@]1(O)C(=O)CO`, the viability was ~83% (H9c2; MTT; 1 µM, 24 h, added: 500 µM H2O2 2 h; relative to: healthy control).
`CNCCCN1c2ccccc2CCc2ccccc21` — result for [18F]-DOPA retention: “no effect” (mouse pheochromocytoma MPC cells; 1 µM, 30 min preincubation, added: 0.029 MBq/mL [18F]-DOPA 120 min; relative to: control).
`SIIVFEKL` gave a TNF-alpha+ cells of 27.7% (OT-I CD8+ T cells; peptide; concentration not given, primed 5 d, OVA257 100 ng/mL restimulation, added: 20 ng/mL TGF-beta1 from day 2).
With `O=C1NC(=O)C(c2ccccc2)(c2ccccc2)N1` the ID50 was 49 µM (ES-D3 mouse embryonic stem cells; cardiomyocyte differentiation).
For `COc1ccc(-c2ccc(-c3ccc(C(=N)N)nc3)s2)cc1Cl`, the mRNA level was 1.29 ± 0.13 (HepG2; real-time PCR, measured: TXNRD1; 0.1 µM, 8 h, unit not given; relative to: untreated).
For `SIYNFEKL`, the IL-2+ cells was 87.5% (OT-I CD8+ T cells; peptide; concentration not given, primed 5 d, OVA257 100 ng/mL restimulation, added: no TGF-beta1).
The TGI of `COc1cc(Cc2nnc3sc(/C=C/c4ccc(Cl)cc4)nn23)c(S(=O)(=O)N(C)C)cc1OC` is reported as > 100 µM (MRC5 normal lung fibroblasts; MTT; 48 h).
`AIAEGDSHVLKEGAY / MEIFDVQGHVFGGKIFRVVDLGSHNVA (oligomer)`: “T cell association” 37 to 41% (human T cells; flow cytometry, ThT label; peptide; 5 µM, 1 h).
With `VCTGSC` the adherent cells was 17% (rabbit smooth muscle cells; peptide; 2 µg coated per well, 30 to 60 min; relative to: thrombospondin-coated wells).
For `O=C1NC2(CCCCC2)c2nc3c(c(-c4ccccc4)c21)CCCC3`, the inhibition was 79.2% (human erythrocytes; hypotonicity-induced hemolysis; 200 µg/mL, 1 h).
`C[C@H](NC(=O)Cc1cc(F)cc(F)c1)C(=O)N[C@H](C(=O)OC(C)(C)C)c1ccccc1` — result for mRNA level: “decreased” (HPB-ALL; qPCR, measured: NOTCH1; 30 µM, 16 h, 37 °C; relative to: untreated).
With `COc1cc(O)c2c(c1)O[C@H](c1ccc(O)cc1)CC2=O` the Hill slope was -2.2 ± 0.3 (BV-2; NO release, inhibitor, Griess; 24 h, added: 10 µg/mL LPS + 1 µM nicotine).
For `COc1ccc(/C=C/C(=O)/C(=C/C2=CC=C[CH]2[Fe][CH]2C=CC=C2)C(=O)/C=C/c2ccc(O)cc2)cc1OC` (centres unmarked), the IC50 was 7.29 µM (RKO; cell growth or viability, MTT).
The eosinophil chemotaxis of `CC(C)[C@H](N)C(N)=O` is reported as 96.2% (human eosinophils; 10 to 6 M, 20 min pretreatment, 37 °C, cells washed before stimulus, added: valyl-tetrapeptide; relative to: control).
`CC(C)(N)C(=O)O` has a Kd of 1230 µM (Ehrlich ascites cells, mouse; substrate binding to Na+-carrier; equilibrium model K2).
For `B1`, the cellular uptake was ~62% (CHO pgsD-677, heparan sulfate-deficient; flow cytometry; 20 µM, 2 h, 37 °C, FITC-labelled peptide; relative to: wild-type CHO-K1).
`CC[C@H](C)[C@H](NC(=O)[C@@H](CC(=O)NO)Cc1ccccc1)C(=O)N[C@@H](CC(C)C)C(=O)O` has an angiotensin-(1-7) content of 37 ± 5 fmol/mg protein (HK-2; RIA; intracellular; 20 nM, 72 h).
The adherent cells of `CSVTCR` is reported as 159% (rabbit smooth muscle cells; peptide; 2 µg coated per well, 30 to 60 min; relative to: thrombospondin-coated wells).
Under “luciferase activity change”, `RBRBRBRBRBRBRBRBB (PMO conjugate)` is recorded as “no effect” (HeLa pLuc705 cells; splice correction; peptide, OptiMEM 10% FBS; 1 to 5 µM, 24 h, L-Arg to D-Arg replacement).
With `N.N.O=C([O-])C1(C(=O)[O-])CCC1.[Pt+2]` the viability decrease was 30% (A2780/CP70 (platinum-resistant); 52.8 µM, 72 h).
`Cc1ccc(C(=O)NCc2ccsc2)cc1C#Cc1cn(C(C)C)c2ncnc(N)c12` has a GI50 of > 1 µM (A-431, EGFR amplified).
The classification accuracy of `C[C@@H]1CCO[C@H]2Cn3cc(C(=O)NCc4ccc(F)cc4F)c(=O)c(O)c3C(=O)N12` is reported as < 100% (human neural progenitor cells; concentration not given; relative to: DMSO).
The GI50 of `CCCCCCCCCCCCCCCCCCOc1ccccc1CC(=O)OCC[N+]1(C)CCCC1` is reported as < 3 µM (leukaemia cells; range over four lines).
The inhibition of `O=C1NC2(CCCCC2)c2[nH]c(=S)nc(-c3ccccc3)c21` is reported as 85.1% (human erythrocytes; hypotonicity-induced hemolysis; 800 µg/mL, 1 h).
For `CCn1c2ccccc2c2cc(C3CC(c4cc5ccccc5oc4=O)=NN3C(N)=O)ccc21` (centres unmarked), “cells in G0/G1 phase” read 59.8% (NCI-H520; propidium iodide staining; IC50, 24 h).
With `O=C1CCC(=O)C2(CCCCC2)N1` the inhibition was 61.3% (human erythrocytes; hypotonicity-induced hemolysis; 200 µg/mL, 1 h).
`C/C(=C\COP(=O)(O)OP(=O)(O)O)CO` has a Hill slope of 0.68 (γδ T cells with loaded K562 cells; IFN-γ production, ELISA; 2 h).
For `COc1ccc(-c2ccc(-c3ccc(C(=N)N)nc3)s2)cc1`, the mRNA level was 1.57 ± 0.76 (HepG2; real-time PCR, measured: caspase-3; 0.1 µM, 8 h, unit not given; relative to: untreated).
With `COc1ccc2c(c1)c(CC(=O)O)c(C)n2C(=O)c1ccc(Cl)cc1` the inhibition was 97.3% (human erythrocytes; hypotonicity-induced hemolysis; 800 µg/mL, 1 h).
With `COc1cc(-c2ccc(-c3ccc(C(=N)N)nc3)s2)cc(OC)c1OC` the mRNA level was 1.07 ± 0.12 (HepG2; real-time PCR, measured: TXNRD1; 0.1 µM, 8 h, unit not given; relative to: untreated).
`O=C1/C(=C/c2ccc(O)c(Br)c2)CN(Cc2cccc(Cl)c2)C/C1=C\c1ccc(O)c(Br)c1`: “PSA reporter activity” “decreased” (LNCaP cells; reporter gene, luciferase; up to 8 to 10 µM, 2 days; relative to: CMV-Renilla control).

A few entries again:
`SIIVFEKL` gave a TNF-alpha+ cells of 27.7% (OT-I CD8+ T cells; peptide; concentration not given, primed 5 d, OVA257 100 ng/mL restimulation, added: 20 ng/mL TGF-beta1 from day 2).
With `COc1cc(O)c2c(c1)O[C@H](c1ccc(O)cc1)CC2=O` the Hill slope was -2.2 ± 0.3 (BV-2; NO release, inhibitor, Griess; 24 h, added: 10 µg/mL LPS + 1 µM nicotine).
`CNCCCN1c2ccccc2CCc2ccccc21` — result for [18F]-DOPA retention: “no effect” (mouse pheochromocytoma MPC cells; 1 µM, 30 min preincubation, added: 0.029 MBq/mL [18F]-DOPA 120 min; relative to: control).
For `O=C1NC2(CCCCC2)c2nc3c(c(-c4ccccc4)c21)CCCC3`, the inhibition was 79.2% (human erythrocytes; hypotonicity-induced hemolysis; 200 µg/mL, 1 h).
Under “luciferase activity change”, `RBRBRBRBRBRBRBRBB (PMO conjugate)` is recorded as “no effect” (HeLa pLuc705 cells; splice correction; peptide, OptiMEM 10% FBS; 1 to 5 µM, 24 h, L-Arg to D-Arg replacement).
For `COc1ccc(-c2ccc(-c3ccc(C(=N)N)nc3)s2)cc1Cl`, the mRNA level was 1.29 ± 0.13 (HepG2; real-time PCR, measured: TXNRD1; 0.1 µM, 8 h, unit not given; relative to: untreated).
